Published values gathered from unrelated publications.
Every numbered part comes from another study and shows a few of its results, in no order.
Sequence of UniProt P28222 (whole entry, looked up): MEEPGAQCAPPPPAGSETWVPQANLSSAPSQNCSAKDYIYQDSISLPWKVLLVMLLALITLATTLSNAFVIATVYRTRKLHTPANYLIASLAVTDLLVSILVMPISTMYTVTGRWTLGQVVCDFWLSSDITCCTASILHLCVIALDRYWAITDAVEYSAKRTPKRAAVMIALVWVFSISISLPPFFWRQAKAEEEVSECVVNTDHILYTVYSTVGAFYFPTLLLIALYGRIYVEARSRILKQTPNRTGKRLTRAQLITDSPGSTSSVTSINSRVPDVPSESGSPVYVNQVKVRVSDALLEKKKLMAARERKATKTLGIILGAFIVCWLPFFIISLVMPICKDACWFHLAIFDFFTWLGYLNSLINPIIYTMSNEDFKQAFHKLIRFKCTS
Sequence of UniProt P35462 (whole entry, looked up): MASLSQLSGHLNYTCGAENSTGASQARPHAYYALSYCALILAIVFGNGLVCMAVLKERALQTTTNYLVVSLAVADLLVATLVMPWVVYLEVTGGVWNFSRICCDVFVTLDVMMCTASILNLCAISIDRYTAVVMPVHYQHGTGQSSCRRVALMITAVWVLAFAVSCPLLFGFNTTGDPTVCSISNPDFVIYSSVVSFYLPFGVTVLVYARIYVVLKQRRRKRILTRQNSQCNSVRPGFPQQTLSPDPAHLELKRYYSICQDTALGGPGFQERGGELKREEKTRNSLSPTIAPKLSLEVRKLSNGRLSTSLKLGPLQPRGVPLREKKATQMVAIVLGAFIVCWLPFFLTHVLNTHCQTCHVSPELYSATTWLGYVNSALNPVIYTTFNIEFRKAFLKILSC
Sequence of UniProt P07550 (whole entry, looked up): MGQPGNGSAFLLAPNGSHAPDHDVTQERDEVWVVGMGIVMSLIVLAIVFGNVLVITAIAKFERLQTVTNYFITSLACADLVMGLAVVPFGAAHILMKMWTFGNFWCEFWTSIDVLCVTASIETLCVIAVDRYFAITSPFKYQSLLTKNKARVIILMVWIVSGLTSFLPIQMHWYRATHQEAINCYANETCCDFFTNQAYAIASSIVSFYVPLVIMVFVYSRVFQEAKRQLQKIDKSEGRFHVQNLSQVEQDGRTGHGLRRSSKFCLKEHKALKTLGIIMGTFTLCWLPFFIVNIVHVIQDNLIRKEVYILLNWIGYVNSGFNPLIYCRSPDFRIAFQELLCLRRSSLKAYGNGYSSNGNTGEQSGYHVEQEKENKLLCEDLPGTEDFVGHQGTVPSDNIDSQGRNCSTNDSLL
Sequence of UniProt P35916 (whole entry, unmodified, looked up): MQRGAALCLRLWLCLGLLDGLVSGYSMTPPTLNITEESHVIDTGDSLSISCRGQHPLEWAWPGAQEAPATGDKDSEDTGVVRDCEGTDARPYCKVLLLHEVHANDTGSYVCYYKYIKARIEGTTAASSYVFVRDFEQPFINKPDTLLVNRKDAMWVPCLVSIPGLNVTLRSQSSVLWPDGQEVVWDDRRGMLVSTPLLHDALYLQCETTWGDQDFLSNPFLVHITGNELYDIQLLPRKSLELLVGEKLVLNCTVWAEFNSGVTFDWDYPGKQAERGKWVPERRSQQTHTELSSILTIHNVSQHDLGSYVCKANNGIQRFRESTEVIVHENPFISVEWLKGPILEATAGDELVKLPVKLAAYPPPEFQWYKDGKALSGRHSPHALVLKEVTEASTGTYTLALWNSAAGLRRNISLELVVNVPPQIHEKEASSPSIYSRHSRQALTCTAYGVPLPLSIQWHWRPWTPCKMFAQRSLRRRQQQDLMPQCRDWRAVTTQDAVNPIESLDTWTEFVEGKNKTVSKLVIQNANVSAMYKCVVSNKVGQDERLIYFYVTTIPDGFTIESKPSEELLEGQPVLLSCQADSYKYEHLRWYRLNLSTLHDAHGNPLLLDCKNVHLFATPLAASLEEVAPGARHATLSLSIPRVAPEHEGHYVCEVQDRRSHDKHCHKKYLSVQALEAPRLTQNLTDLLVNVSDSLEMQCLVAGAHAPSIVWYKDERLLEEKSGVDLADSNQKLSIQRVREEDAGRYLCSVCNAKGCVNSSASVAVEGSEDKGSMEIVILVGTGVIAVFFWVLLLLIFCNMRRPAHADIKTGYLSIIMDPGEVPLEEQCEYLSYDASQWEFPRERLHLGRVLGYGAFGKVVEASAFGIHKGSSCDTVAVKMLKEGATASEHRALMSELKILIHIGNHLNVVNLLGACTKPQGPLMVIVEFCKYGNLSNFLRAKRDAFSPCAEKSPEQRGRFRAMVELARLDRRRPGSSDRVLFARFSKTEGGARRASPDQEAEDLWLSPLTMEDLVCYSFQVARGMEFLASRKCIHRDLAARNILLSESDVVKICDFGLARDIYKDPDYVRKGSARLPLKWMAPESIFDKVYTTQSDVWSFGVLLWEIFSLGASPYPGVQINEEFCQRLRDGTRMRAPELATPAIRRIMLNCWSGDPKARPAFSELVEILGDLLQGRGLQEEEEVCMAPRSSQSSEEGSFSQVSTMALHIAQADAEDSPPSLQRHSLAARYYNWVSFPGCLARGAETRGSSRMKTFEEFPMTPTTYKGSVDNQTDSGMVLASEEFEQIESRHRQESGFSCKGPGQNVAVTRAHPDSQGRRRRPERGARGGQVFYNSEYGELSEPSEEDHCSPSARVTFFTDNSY
Sequence of UniProt P54762 (whole entry, looked up): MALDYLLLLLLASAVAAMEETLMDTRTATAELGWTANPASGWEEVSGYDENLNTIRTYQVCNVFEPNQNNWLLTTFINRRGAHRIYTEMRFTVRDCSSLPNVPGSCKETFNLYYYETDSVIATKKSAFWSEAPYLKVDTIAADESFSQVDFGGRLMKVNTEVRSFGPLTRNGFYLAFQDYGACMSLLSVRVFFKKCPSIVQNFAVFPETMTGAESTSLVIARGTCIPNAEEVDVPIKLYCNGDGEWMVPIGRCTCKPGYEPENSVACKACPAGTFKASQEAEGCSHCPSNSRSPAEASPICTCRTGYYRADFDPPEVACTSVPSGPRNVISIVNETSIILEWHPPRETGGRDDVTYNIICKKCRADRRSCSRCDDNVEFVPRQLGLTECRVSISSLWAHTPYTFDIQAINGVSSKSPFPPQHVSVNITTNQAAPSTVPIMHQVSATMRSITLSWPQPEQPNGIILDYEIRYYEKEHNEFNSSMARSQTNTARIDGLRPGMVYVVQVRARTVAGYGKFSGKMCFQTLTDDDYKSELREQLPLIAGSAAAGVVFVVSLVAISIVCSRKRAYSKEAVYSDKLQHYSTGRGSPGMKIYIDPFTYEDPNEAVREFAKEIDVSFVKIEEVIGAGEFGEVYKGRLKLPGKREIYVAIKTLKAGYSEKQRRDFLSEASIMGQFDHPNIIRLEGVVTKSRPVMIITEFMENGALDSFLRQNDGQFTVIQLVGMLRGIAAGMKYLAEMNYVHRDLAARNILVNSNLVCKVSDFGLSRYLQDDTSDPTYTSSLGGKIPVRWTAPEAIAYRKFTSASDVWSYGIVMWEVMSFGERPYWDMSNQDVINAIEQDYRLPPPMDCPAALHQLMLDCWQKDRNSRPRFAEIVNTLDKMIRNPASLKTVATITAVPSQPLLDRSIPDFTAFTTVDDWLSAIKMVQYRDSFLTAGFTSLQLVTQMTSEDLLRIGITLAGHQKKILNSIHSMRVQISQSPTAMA
Sequence of UniProt Q5BJF2 (whole entry, looked up): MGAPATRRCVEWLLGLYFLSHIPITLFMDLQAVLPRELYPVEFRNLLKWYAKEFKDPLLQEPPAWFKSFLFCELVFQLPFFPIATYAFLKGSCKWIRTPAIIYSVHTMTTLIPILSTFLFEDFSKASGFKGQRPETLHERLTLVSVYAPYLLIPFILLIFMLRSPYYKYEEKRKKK

Set 1 — action: inhibitor; concentration: 5 µM
Compound: COc1cc(/C=C(\C#N)C(=O)c2ccc(O)c(O)c2)cc(I)c1O
| target | assay | test system | setting | how to read | log2 fold change |
| --- | --- | --- | --- | --- | --- |
| BLK (Homo sapiens, UniProt P51451) | cell-based kinome profiling | human cells |  | baseline: vehicle control | 0.302 |
| Ephrin type-B receptor 1, with CDC37 (EPHB1, Homo sapiens, UniProt P54762) | cell-based kinome screen | human cells |  | baseline: vehicle | 0.308 |
| CAMK2G (Homo sapiens, UniProt Q13555) | cell-based kinome profiling | human cells |  | baseline: vehicle control | 0.269 |
| STK38L (Homo sapiens, UniProt Q9Y2H1) | kinase-CDC37 interaction | human cells |  | baseline: vehicle | 0.019 |
| BRAF (Homo sapiens, UniProt P15056, G469E) | cell-based kinome profiling | human cells |  | baseline: vehicle control | 0.069 |
| IGF1R (Homo sapiens, UniProt P08069) | cell-based kinome screen | human cells |  | baseline: vehicle | 0.121 |
| FLT4 (Homo sapiens, UniProt P35916, L1044P) | cell-based translocation | human cells | hereditary lymphedema type 1A variant | baseline: vehicle | 1.03 |

Set 2 — read-out: enzyme activity; action: inhibitor; concentration: 0.5 µM; baseline: control
Target: Ribosomal protein S6 kinase alpha-6 (RPS6KA6, Homo sapiens, UniProt Q9UK32)
Sequence of UniProt Q9UK32 (whole entry, looked up): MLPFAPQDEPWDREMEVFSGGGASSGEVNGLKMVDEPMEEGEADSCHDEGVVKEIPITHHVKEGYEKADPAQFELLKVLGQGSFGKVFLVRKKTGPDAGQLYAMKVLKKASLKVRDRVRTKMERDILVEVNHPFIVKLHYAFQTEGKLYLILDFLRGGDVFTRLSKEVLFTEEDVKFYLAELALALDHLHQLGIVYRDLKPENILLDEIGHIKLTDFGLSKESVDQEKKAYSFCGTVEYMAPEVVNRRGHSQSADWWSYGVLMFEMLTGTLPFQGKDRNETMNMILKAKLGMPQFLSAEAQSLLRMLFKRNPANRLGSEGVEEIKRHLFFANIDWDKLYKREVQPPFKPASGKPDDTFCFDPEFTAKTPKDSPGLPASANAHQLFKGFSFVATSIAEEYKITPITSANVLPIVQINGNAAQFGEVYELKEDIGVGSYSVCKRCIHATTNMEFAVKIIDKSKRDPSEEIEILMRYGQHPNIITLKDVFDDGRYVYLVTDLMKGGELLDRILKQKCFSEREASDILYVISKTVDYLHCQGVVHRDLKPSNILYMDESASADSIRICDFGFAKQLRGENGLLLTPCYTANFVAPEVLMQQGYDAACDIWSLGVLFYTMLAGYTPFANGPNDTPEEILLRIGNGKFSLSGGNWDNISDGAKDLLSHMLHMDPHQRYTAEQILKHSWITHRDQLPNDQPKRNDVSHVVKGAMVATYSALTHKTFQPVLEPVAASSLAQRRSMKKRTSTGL
| Structure (SMILES) | remaining activity [%] |
| --- | --- |
| CN(C)c1ccc(C=C2C(=O)Nc3ccccc32)cc1 | 93.9 |
| O=S(=O)(c1cccc2cnccc12)N1CCCNCC1 | 94 |
| C#Cc1cccc(Nc2ncnc3cc(OCCOC)c(OCCOC)cc23)c1 | 99.1 |
| O=C(Nc1cccc(Nc2cc(Nc3cccc(C(F)(F)F)c3)ncn2)c1)C1CC1 | 96.6 |
| Cn1sc(=O)n(Cc2ccccc2)c1=O | 104 |
| COc1ccc(C(=O)Nc2sc3c(c2C(N)=O)CCCC3)cc1OC | 98.5 |
| COc1ccc(OC)c2c(=S)c3ccccc3[nH]c12 | 85.2 |
| Cc1cccc(-c2[nH]c(C(C)(C)C)nc2-c2ccc3c(c2)OCO3)n1 | 107 |
| CC(C)[C@H](CO)Nc1nc(Nc2cc(N)cc(Cl)c2)c2ncn(C(C)C)c2n1 | 46.1 |
| CCOC(=O)c1c(C)[nH]c(/C=C2\C(=O)Nc3ccccc32)c1C | 87.6 |
| COc1cc2ncnc(Nc3ccc(F)c(Cl)c3)c2cc1OCCCN1CCOCC1 | 95.2 |
| O=C1NC(=O)C(c2cn(CCCO)c3ncccc23)=C1c1cnccn1 | 73 |
| Cc1ccc(NC(=O)c2ccc(CN3CCN(C)CC3)cc2)cc1Nc1nc(-c2cccnc2)cs1 | 103 |
| Nc1[nH]nc2nc3ccccc3nc12 | 94.2 |
| OCC(O)CCON=C1C(c2c(O)[nH]c3ccccc23)=Nc2ccccc21 (stereo not shown) | 16.4 |

Set 3 — read-out: enzyme activity; action: inhibitor; concentration: 10 µM
Target: Calcium/calmodulin-dependent protein kinase type II subunit alpha (CAMK2A, Homo sapiens, UniProt Q9UQM7)
Sequence of UniProt Q9UQM7 (whole entry, looked up): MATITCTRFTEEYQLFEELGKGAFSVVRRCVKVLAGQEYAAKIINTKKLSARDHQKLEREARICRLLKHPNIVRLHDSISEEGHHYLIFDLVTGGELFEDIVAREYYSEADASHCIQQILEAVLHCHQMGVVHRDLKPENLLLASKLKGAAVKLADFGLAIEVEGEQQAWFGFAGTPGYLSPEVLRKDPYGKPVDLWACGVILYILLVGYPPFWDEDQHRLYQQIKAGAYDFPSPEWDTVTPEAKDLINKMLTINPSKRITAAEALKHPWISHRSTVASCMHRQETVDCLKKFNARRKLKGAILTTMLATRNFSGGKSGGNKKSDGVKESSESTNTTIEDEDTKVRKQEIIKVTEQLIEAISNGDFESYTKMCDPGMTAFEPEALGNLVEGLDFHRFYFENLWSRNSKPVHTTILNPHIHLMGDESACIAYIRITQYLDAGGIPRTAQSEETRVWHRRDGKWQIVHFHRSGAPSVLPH
| Compound | inhibition |
| --- | --- |
| N[C@@H](Cc1ccccc1)C(=O)O | 22% |
| CN(C)c1ccc2nc3ccc(=[N+](C)C)cc-3sc2c1 | 9% |
| CC(C)(C)NC(=O)[C@H]1CC[C@H]2[C@@H]3CC=C4C=C(C(=O)O)CC[C@]4(C)[C@H]3CC[C@]12C | -7% |
| O=C(O)c1cc(-c2ccc(F)cc2F)ccc1O | -1% |
| C=C1C(=O)O[C@@H]2[C@H]3C(C)=CC[C@@]34O[C@@]4(C)CC[C@@H]12 | 4% |
| O=c1ccoc2cc(O)ccc12 | -27% |
| COc1cc(C)ccc1O | -70% |
| O=c1c(O)c(-c2ccc(O)c(O)c2)oc2cc(O[C@@H]3O[C@H](CO)[C@@H](O)[C@H](O)[C@H]3O)c(O)c(O)c12 | -37% |

Set 4 — read-out: binding; method: radioligand binding; concentration: 10 µM
SMILES: N#CN1CC[C@@H](C(=O)Nc2nc3c(s2)CN(C(=O)CN=[N+]=[N-])CC3)C1
| target | inhibition [%] |
| --- | --- |
| ADRA1A (Homo sapiens, UniProt P35348) | 3.73 |
| HTR6 (Homo sapiens, UniProt P50406) | 8.14 |
| TMEM97 (Homo sapiens, UniProt Q5BJF2) | -18.7 |
| DRD3 (Homo sapiens, UniProt P35462) | -11.7 |
| ADRB2 (Homo sapiens, UniProt P07550) | -8.12 |
| HTR1B (Homo sapiens, UniProt P28222) | 6.13 |
| HRH3 (Homo sapiens, UniProt Q9Y5N1) | -2.11 |

Excerpt of the above (set 1):
| target | assay | test system | setting | how to read | log2 fold change |
| --- | --- | --- | --- | --- | --- |
| Ephrin type-B receptor 1, with CDC37 (EPHB1, Homo sapiens, UniProt P54762) | cell-based kinome screen | human cells |  | baseline: vehicle | 0.308 |
| IGF1R (Homo sapiens, UniProt P08069) | cell-based kinome screen | human cells |  | baseline: vehicle | 0.121 |
